Results pooled from the literature.
Protocols differ between the studies behind these lines. ± gives the spread as reported.
GRPR: Gastrin-releasing peptide receptor (GRPR, Homo sapiens, UniProt P30550)
Chain of UniProt P30550 (whole entry, looked up): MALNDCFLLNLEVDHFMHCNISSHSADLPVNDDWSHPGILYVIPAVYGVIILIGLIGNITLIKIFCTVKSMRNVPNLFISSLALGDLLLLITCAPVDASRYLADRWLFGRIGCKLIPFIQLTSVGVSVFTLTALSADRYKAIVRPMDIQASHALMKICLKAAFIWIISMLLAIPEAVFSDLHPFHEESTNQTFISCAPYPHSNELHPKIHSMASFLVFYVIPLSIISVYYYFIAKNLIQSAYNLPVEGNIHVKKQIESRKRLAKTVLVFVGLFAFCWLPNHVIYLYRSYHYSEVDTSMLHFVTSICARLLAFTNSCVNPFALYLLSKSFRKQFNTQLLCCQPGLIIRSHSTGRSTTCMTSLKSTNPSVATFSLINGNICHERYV
Chain of UniProt P07363 (whole entry, looked up): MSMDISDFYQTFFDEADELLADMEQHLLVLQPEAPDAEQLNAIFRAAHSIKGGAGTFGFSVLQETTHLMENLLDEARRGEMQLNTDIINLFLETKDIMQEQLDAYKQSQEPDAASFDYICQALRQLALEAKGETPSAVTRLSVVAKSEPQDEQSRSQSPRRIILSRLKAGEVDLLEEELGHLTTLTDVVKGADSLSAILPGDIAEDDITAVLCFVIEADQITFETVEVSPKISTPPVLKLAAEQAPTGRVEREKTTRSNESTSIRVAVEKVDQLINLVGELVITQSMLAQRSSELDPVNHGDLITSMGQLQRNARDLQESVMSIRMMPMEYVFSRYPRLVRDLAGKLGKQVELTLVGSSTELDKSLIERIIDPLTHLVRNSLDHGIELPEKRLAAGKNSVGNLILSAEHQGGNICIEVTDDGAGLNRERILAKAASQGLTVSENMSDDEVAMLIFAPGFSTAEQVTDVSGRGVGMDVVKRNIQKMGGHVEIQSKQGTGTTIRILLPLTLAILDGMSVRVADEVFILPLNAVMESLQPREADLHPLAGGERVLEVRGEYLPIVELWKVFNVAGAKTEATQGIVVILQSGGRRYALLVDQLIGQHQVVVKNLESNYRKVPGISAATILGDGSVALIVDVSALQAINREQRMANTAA
Chain of UniProt Q09470 (whole entry, looked up): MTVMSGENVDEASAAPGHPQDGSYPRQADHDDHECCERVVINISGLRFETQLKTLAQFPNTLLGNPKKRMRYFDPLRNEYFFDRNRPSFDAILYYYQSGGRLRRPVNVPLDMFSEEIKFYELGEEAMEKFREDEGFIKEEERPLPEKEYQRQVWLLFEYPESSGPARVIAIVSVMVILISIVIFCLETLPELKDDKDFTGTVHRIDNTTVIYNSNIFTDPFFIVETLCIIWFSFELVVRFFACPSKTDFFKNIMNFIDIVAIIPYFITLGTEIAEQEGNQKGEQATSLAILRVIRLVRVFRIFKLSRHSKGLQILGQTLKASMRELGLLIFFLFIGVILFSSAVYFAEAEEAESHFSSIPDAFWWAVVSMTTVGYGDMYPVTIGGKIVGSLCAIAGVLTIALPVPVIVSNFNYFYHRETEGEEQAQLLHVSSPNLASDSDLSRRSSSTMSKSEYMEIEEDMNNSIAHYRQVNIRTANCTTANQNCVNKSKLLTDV
Chain of UniProt P00441 (whole entry, looked up): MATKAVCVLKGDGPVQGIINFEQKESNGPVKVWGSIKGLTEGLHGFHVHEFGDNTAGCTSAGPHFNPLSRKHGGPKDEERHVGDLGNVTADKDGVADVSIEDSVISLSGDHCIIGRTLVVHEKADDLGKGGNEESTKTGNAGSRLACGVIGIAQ
Chain of UniProt P22314 (whole entry, looked up): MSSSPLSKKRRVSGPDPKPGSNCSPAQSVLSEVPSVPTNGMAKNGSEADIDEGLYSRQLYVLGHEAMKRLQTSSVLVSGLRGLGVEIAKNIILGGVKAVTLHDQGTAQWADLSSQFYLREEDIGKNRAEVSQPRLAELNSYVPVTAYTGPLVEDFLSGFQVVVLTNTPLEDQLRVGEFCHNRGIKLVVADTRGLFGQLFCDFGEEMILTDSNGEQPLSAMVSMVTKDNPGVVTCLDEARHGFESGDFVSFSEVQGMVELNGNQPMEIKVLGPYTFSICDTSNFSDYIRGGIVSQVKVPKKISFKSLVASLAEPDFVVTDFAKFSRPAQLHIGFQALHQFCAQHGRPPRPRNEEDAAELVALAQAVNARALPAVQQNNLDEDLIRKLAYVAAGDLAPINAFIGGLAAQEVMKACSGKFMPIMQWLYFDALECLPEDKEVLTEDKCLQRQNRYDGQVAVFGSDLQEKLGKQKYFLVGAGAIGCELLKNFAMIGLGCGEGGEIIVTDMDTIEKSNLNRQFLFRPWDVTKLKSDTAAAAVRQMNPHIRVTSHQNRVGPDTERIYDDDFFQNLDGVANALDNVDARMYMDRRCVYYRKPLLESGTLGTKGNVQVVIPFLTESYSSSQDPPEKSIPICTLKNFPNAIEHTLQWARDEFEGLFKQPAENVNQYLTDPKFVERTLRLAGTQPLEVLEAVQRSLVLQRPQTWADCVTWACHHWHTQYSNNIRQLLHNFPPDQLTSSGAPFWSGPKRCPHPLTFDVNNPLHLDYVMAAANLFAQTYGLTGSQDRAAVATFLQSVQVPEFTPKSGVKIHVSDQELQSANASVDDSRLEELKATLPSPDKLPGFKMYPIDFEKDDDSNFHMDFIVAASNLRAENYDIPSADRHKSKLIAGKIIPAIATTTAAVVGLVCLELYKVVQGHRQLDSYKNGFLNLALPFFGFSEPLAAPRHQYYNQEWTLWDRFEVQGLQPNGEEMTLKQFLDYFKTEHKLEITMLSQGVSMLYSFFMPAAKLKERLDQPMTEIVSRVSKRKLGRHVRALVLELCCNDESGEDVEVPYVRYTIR
Chain of UniProt P16389 (whole entry, looked up): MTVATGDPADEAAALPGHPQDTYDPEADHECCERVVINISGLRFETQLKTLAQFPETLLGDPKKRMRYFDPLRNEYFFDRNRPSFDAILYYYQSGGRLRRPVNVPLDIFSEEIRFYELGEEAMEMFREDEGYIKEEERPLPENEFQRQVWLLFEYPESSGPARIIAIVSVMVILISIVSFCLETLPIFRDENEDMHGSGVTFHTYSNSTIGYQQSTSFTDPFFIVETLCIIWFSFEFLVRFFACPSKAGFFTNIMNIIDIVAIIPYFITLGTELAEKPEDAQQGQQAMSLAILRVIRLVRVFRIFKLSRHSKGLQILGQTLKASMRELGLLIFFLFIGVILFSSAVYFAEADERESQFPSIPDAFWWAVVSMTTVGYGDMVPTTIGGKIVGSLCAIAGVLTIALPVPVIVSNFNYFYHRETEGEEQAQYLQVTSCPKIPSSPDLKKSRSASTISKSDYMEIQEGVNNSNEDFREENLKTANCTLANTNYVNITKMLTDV
Chain of UniProt P09936 (whole entry, looked up): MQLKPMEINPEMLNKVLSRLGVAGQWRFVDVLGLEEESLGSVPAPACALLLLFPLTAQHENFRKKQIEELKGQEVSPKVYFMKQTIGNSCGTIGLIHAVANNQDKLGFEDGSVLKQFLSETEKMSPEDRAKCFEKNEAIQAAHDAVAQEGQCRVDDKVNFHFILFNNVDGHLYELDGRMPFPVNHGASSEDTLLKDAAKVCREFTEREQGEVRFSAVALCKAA
Chain of UniProt Q9NTG7 (whole entry, looked up): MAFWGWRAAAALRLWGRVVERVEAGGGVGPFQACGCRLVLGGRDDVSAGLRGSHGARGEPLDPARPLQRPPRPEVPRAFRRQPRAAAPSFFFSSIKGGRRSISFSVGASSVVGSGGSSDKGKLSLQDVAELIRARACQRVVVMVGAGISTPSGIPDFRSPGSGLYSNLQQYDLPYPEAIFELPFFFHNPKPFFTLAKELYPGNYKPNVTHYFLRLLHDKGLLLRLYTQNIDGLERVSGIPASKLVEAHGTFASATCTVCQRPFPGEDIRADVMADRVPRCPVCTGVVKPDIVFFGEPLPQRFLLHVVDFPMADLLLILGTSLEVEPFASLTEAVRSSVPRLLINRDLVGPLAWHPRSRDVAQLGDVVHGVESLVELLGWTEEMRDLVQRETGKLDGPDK
Chain of UniProt Q9UM07 (whole entry, looked up): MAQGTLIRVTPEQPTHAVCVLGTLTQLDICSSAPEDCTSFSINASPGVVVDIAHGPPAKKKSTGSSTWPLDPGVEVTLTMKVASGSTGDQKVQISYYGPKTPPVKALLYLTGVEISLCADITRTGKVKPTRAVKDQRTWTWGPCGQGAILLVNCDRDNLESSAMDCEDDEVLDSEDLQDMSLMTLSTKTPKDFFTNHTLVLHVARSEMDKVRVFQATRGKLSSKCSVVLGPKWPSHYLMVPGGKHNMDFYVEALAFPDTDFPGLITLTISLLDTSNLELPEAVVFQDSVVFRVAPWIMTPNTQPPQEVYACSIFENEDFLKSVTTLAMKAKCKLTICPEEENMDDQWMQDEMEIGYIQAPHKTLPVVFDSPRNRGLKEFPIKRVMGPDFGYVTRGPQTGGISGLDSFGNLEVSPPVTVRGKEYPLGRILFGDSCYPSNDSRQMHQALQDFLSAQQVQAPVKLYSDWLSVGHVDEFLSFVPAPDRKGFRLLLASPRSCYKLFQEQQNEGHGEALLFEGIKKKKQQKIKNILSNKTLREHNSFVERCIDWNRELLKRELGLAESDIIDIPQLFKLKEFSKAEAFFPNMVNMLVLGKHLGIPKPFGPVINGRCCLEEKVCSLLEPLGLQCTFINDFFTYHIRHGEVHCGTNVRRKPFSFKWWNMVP

SMILES | target | test | test system | setting | IC50 [nM]
N[C@@H](C(=O)N1CCCC1)C1CCN(c2nccc3c(-c4ncc(Cl)cc4Cl)cccc23)CC1 | Protein-arginine deiminase type-4 (PADI4, Homo sapiens, UniProt Q9UM07) | enzyme activity, fluorescence quenching |  | together with: Ca2+ 0.4 mM | 26000
O=C(COc1cc2ccccc2cc1C(=O)NCc1ccccc1)Nc1ccccc1N1CCCC1=O | KCNA2/KCNA1 (Homo sapiens, UniProt P16389+Q09470) | potassium current, inhibitor, automated patch clamp | CHO-K1, concatemer expressing |  | 1410
O=c1c(/C=N/NC(=S)N/N=C/c2ccccc2O)coc2ccccc12 | Superoxide dismutase [Cu-Zn] (SOD1, Homo sapiens, UniProt P00441) | enzyme activity, inhibitor | HeLa | 24 h | 210
N=C(N)NCCC[C@@H](NC(=O)CCCCCNC(=O)c1ccc(-c2ccnc(N)n2)s1)C(=O)NCCCCCC(=O)N[C@H](CCCNC(=N)N)C(=O)N[C@H](CCCNC(=N)N)C(=O)N[C@H](CCCNC(=N)N)C(=O)N[C@H](CCCNC(=N)N)C(=O)N[C@H](CCCNC(=N)N)C(=O)N[C@H](CCCNC(=N)N)C(=O)N[C@H](CCCCN)C(N)=O | cGMP-dependent protein kinase 1, isoform alpha (PRKG1, Bos taurus, UniProt P00516) | binding, fluorescence intensity displacement |  | together with: ARC-1059 and cGMP | 89.1
O=C(O)c1ccccc1-c1c2ccc(=O)cc-2oc2cc(O)ccc12 | Ubiquitin-like modifier-activating enzyme 1 (UBA1, Homo sapiens, UniProt P22314) | enzyme activity, inhibitor |  |  | > 100000
CC(C)C[C@@H](CN[C@H](Cc1ccccc1)C(N)=O)NC(=O)[C@H](Cc1c[nH]cn1)NC(=O)CNC(=O)[C@@H](NC(=O)[C@H](C)NC(=O)[C@H](Cc1c[nH]c2ccccc12)NC(=O)[C@H](CCC(N)=O)NC(=O)[C@H](N)Cc1ccccc1)C(C)C | GRPR | binding, radioligand binding | HuTu80 |  | 12.6 ± 0.5
CCC1(CC)C[C@@H](NC(=O)Nc2cccc3c(C)nccc23)c2cc(F)ccc2O1 | Transient receptor potential cation channel subfamily M member 8 (TRPM8, Homo sapiens, UniProt Q7Z2W7) | channel activity, blocker |  | together with: menthol 10 µM | > 25000
N#CN1CC[C@H](C(=O)Nc2nc3c(s2)CN(C(=O)Cn2cc(CCCNC(=O)c4ccc(-c5c6ccc(=N)cc-6oc6cc(N)ccc56)c(C(=O)O)c4)nn2)CC3)C1 | Ubiquitin carboxyl-terminal hydrolase isozyme L1 (UCHL1, Homo sapiens, UniProt P09936) | enzyme activity, inhibitor, fluorescence |  | with preincubation | 440
Nc1nc2ccc(Oc3ccc4nc(N)sc4c3)cc2s1 | Chemotaxis protein CheA (Escherichia coli, UniProt P07363) | kinase activity, ATP-competitive |  | together with: CheW | > 100000
CC(C)C[C@@H](NC(=O)[C@H](Cc1ccc(I)cc1)NC(=O)CCc1cccc([N+](=O)[O-])c1)C(=O)NCC1(CC(=O)N[C@@H](CS)C(N)=O)CCCCC1 | Histone acetyltransferase p300 (EP300, Homo sapiens, UniProt Q09472) | enzyme activity, inhibitor, radiometric |  |  | > 100000
CC(C)OC(=O)C(CS)N1C(=O)c2ccc(N(C)C)cc2C1=O (centres unmarked) | Metallo-beta-lactamase VIM-2 (VIM-2, Escherichia coli, UniProt Q5U7L7) | enzyme activity, inhibitor |  | pH 7 | 320
CCNC(=O)[C@H](CC(C)C)NC(=O)[C@H](Cc1c[nH]cn1)NC(=O)CNC(=O)[C@@H](NC(=O)[C@H](C)NC(=O)[C@H](Cc1c[nH]c2ccccc12)NC(=O)[C@H](CCC(N)=O)NC(=O)[C@H](N)Cc1ccccc1)C(C)C | GRPR | ligand displacement, radioligand |  |  | 16.4
CCCCCCCCCCCCCC(=S)NCCCC[C@H](NC(=O)[C@@H]1CCCN1)C(=O)N[C@@H](CCCCN)C(=O)N[C@H](C(=O)NCC(=O)O)[C@@H](C)O | NAD-dependent protein deacetylase sirtuin-3, mitochondrial (SIRT3, Homo sapiens, UniProt Q9NTG7) |  |  |  | 17500
Cc1cc2c(NC(=O)N[C@@H]3CC(C)(C)Oc4cc(C(F)(F)F)ccc43)cccc2cn1 | Transient receptor potential cation channel subfamily V member 1 (TRPV1, Homo sapiens, UniProt Q8NER1) | heat-activated current, antagonist |  | together with: heat 48 °C | 5

Some of these lines once more:
SMILES | target | test | test system | setting | IC50 [nM]
O=c1c(/C=N/NC(=S)N/N=C/c2ccccc2O)coc2ccccc12 | Superoxide dismutase [Cu-Zn] (SOD1, Homo sapiens, UniProt P00441) | enzyme activity, inhibitor | HeLa | 24 h | 210
